Results gathered from unrelated publications.
Each line is one published result; not all experiments were run side by side. ± marks the error that the study gave.
Technique: steady-state kinetics
B1: GTPBP3 A322P/E225K (Homo sapiens, UniProt Q969Y2); chain TRRSSGAPAPGSGATIFALSSGQGRCGIAVIRTSGPASGHALRILTAPRDLPLARHASLRLLSDPRSGEPLDRALVLWFPGPQSFTGEDCVEFHVHGGPAVVSGVLQALGSVPGLRPAEAGEFTRRAFANGKLNLTEVEGLADLIHAETEAQRRQALRQLDGELGHLCRGWAETLTKALAHVEAYIDFGEDDNLEEGVLEQADIKVRALQVALGAHLRDARRGQRLRSGVHVVVTGPPNAGKSSLVNLLSRKPVSIVSPEPGTTRDVLETPVDLAGFPVLLSDTAGLREGVGPVEQEGVRRPRERLEQADLILAMLDASDLASPSSCNFLATVVASVGAQSPSDSSQRLLLVLNKSDLLSPEGPGPGPDLPPHLLLSCLTGEGLDGLLEALRKELAAVCGDPSTDPPLLTRARHQHHLQGCLDALGHYKQSKDLALAAEALRVARGHLTRLTGGGGTEEILDIIFQDFCVGK
B2: TcC (Trypanosoma cruzi, UniProt Q4DGA3); chain MPREYEFAEKILFTEEEIRTRIMEVAKRIADDYKGKGLRPYVNPLVLISVLKGSFMFTADLCRALSDFNVPVRMEFICVSSYGEGVTSSGQVRMLLDTRHSIEGHHVLIVEDIVDTALTLNYLYHMYFTRRPASLKTVVLLDKREGRRVPFSADYVVANIPNAFVIGYGLDYDDTYRELRDIVVLRPEVYAEREAARQKKQRAIGSADTDRDAKREFHSKY
B3: HARS1 Y330C (Homo sapiens, UniProt P12081); chain MAERAALEELVKLQGERVRGLKQQKASAELIEEEVAKLLKLKAQLGPDESKQKFVLKTPKGTRDYSPRQMAVREKVFDVIIRCFKRHGAEVIDTPVFELKETLMGKYGEDSKLIYDLKDQGGELLSLRYDLTVPFARYLAMNKLTNIKRYHIAKVYRRDNPAMTRGRYREFYQCDFDIAGNFDPMIPDAECLKIMCEILSSLQIGDFLVKVNDRRILDGMFAICGVSDSKFRTICSSVDKLDKVSWEEVKNEMVGEKGLAPEVADRIGDYVQQHGGVSLVEQLLQDPKLSQNKQALEGLGDLKLLFEYLTLFGIDDKISFDLSLARGLDCYTGVIYEAVLLQTPAQAGEEPLGVGSVAAGGRYDGLVGMFDPKGRKVPCVGLSIGVERIFSIVEQRLEALEEKIRTTETQVLVASAQKKLLEERLKLVSELWDAGIKAELLYKKNPKLLNQLQYCEEAGIPLVAIIGEQELKDGVIKLRSVTSREEVDVRREDLVEEIKRRTGQPLCIC
B4: enzyme (Salmonella enterica, UniProt P31570); chain MSDERYQQRQQKVKDRVDARVAQAQEERGIIIVFTGNGKGKTTAAFGTAARAVGHGKNVGVVQFIKGTWPNGERNLLEPHGVEFQVMATGFTWETQNREADTAACMAVWQHGKRMLADPLLDMVVLDELTYMVAYDYLPLEEVISALNARPGHQTVIITGRGCHRDILDLADTVSELRPVKHAFDAGVKAQMGIDY
B5: enzyme E323G (UniProt H9KVH3); chain ADASQIVSEMGAGWNLGNQLEAAVNGTPNETAWGNPTVTPELIKKVKAAGFKSIRIPVSYLNNIGSAPNYTINAAWLNRIQQVVDYAYNEGLYVIINIHGDGYNSVQGGWLLVNGGNQTAIKEKYKKVWQQIATKFSNYNDRLIFESMNEVFDGNYGNPNSAYYTNLNAYNQIFVDTVRQTGGNNNARWLLVPGWNTNIDYTVGNYGFTLPTDNYRSSAIPSSQKRIMISAHYYSPWDFAGEENGNITQWGATSTNPAKKSTWGQEDYLESQFKSMYDKFVTQGYPVVIGGFGSIDKTSYDSSNNVYRAAYAKAVTAKAKKYKMVPVYWDNGHNGQHGFALFNRSNNTVTQQNIINAIMQGMQ
B6: ltaE H126F/H83F (Escherichia coli, UniProt P75823); chain MIDLRSDTVTRPSRAMLEAMMAAPVGDDVYGDDPTVNALQDYAAELSGKEAAIFLPTGTQANLVALLSHCERGEEYIVGQAAFNYLFEAGGAAVLGSIQPQPIDAAADGTLPLDKVAMKIKPDDIFFARTKLLSLENTHNGKVLPREYLKEAWEFTRERNLALHVDGARIFNAVVAYGCELKEITQYCDSFTICLSKGLGTPVGSLLVGNRDYIKRAIRWRKMTGGGMRQSGILAAAGIYALKNNVARLQEDHDNAAWMAEQLREAGADVMRQDTNMLFVRVGEENAAALGEYMKARNVLINASPIVRLVTHLDVSREQLAEVAAHWRAFLAR
B7: Cop6 (Coprinopsis cinerea, UniProt A8NCK5); chain MPAALPYNVSRDNKWDIKKIIQDFFKRCDVPYQVIPYDTELWNACLKRAKEKGYPVEPDSPMSLYRSFKVGVVITRTSYGHIQDYEILIWVATFTAFVTYADDAFQEDIQHLHSFARTFLQNEKHEHPVLEAFAQFLRESSIRFSHFVANTVVSSALRFMMSIALEFEGQNVSVSTEAREYPGYIRILSGLSDIYALFAFPMDLPRSTYIQAFPEQIDYINGTNDLLSFYKEELDCETVNFISAAATSQQVSKLEVLRNAAEKAAYSYDVVVNVLKPYPEALAAWKSFARGFCYFHTSSPRYRLGEMFHDFEHDLVCKCASCTEI
B8: LigI D246A (Sphingobium sp. SYK-6, UniProt O87170); chain TNDERILSWNETPSKPRYTPPPGAIDAHCHVFGPMAQFPFSPKAKYLPRDAGPDMLFALRDHLGFARNVIVQASCHGTDNAATLDAIARAQGKARGIAVVDPAIDEAELAALHEGGMRGIRFNFLKRLVDDAPKDKFLEVAGRLPAGWHVVIYFEADILEELRPFMDAIPVPIVIDHMGRPDVRQGPDGADMKAFRRLLDSREDIWFKATCPDRLDPAGPPWDDFARSVAPLVADYADRVIWGTAWPHPNMQDAIPDDGLVVDMIPRIAPTPELQHKMLVTNPMRLYWSEEM
Chain of UniProt P77488 (whole entry, looked up): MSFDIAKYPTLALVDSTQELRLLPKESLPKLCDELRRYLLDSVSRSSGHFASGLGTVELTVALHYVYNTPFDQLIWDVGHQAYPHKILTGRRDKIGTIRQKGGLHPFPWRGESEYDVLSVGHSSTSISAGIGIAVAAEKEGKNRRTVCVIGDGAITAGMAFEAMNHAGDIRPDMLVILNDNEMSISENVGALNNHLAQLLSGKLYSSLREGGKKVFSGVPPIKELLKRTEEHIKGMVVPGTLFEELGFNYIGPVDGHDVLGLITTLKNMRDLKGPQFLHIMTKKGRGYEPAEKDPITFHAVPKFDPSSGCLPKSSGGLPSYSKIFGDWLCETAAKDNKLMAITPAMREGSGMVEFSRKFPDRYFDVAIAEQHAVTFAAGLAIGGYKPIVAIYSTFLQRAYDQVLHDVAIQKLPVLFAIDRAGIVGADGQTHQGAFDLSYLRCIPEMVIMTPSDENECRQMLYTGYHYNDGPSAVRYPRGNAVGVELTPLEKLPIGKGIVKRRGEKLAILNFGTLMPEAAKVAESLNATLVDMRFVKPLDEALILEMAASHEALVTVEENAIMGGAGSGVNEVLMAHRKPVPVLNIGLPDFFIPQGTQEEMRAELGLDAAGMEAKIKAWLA
Chain of UniProt P22106 (whole entry, looked up): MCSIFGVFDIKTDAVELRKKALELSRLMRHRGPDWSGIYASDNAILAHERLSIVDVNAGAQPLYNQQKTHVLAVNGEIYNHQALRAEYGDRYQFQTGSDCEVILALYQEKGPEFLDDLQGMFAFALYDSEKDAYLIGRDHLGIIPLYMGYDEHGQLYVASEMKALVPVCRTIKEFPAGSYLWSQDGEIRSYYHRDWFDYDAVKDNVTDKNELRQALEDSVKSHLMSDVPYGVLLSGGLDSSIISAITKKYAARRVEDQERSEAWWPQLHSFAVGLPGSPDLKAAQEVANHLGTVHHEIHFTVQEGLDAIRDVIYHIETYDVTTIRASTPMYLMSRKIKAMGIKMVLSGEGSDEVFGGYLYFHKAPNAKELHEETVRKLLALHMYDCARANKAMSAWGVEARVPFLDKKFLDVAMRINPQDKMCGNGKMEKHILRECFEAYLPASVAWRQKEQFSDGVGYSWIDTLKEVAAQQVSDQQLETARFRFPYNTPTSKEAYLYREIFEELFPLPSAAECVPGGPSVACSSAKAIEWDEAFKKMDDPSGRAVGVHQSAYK
Chain of UniProt P76043 (whole entry, looked up): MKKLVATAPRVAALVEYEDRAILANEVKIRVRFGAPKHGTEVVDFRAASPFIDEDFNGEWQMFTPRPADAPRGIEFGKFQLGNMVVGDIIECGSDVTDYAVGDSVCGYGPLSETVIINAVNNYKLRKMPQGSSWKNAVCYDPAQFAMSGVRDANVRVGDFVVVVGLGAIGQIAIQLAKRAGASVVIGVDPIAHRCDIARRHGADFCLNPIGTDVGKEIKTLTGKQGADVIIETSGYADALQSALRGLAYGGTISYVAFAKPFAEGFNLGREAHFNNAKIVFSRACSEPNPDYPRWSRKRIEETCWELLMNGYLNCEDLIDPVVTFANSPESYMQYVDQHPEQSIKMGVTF
Chain of UniProt P45370 (whole entry, looked up): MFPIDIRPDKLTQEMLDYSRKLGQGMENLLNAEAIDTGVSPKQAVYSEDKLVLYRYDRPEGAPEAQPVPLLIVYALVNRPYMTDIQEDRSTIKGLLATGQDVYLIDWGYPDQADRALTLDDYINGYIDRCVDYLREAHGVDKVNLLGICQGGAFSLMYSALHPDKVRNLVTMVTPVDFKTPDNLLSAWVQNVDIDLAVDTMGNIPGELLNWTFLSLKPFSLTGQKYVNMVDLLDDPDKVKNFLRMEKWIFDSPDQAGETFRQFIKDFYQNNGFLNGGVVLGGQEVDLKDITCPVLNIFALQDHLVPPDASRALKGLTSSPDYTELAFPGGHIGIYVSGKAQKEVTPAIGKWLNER
Chain of UniProt P9WEW2 (whole entry, looked up): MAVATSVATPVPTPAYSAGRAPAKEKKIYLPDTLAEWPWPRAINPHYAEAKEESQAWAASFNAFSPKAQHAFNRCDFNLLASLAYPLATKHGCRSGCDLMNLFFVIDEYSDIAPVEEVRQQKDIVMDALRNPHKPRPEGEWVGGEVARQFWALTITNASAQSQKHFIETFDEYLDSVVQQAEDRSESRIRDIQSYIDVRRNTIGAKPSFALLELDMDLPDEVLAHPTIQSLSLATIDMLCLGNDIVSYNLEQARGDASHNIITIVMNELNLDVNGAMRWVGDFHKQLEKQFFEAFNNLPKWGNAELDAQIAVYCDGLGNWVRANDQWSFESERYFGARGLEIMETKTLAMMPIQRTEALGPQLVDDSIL
Chain of UniProt Q9UNA4 (whole entry, looked up): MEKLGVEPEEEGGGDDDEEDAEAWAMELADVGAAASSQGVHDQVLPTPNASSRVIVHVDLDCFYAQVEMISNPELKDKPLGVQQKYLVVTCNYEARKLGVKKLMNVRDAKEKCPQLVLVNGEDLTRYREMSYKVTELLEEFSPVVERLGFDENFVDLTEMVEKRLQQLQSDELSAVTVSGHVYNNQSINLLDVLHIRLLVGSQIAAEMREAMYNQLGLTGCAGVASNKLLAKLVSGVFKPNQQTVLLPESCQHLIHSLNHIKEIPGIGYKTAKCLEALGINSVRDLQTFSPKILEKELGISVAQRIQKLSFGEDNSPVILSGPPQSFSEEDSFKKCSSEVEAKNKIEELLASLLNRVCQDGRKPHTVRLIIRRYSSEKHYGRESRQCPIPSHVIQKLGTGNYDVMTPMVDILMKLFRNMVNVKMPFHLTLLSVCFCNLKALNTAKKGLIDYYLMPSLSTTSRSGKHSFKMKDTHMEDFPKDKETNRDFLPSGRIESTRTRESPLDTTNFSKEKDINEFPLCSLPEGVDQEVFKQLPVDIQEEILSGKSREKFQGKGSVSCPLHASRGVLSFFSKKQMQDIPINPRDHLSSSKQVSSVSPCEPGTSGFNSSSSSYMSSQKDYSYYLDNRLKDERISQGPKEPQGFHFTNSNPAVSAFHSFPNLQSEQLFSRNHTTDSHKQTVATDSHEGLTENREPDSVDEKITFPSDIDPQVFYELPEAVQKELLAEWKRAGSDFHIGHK

For `asnB (Escherichia coli, UniProt P22106)`, the kcat/Km was 1190 M⁻¹ s⁻¹ (NC(=O)CC[C@H](N)C(=O)O; pH 8, 37 °C, 100 mM NaCl, glutaminase site, together with: MgCl2; no ATP).
`ycjQ (Escherichia coli, UniProt P76043)` gave a kcat/Km of 2000 ± 290 M⁻¹ s⁻¹ (CO[C@H]1O[C@H](CO)[C@H](O)C(=O)[C@H]1O; pH 7, 30 °C, together with: NADH 0.3 mM, MnCl2 0.5 mM).
The kcat/Km of `protein (Allochromatium vinosum, UniProt P45370)` is reported as 59800 M⁻¹ s⁻¹ (C#CC[C@@H](O)CC(=O)SCCNC(=O)CCNC(=O)[C@H](O)C(C)(C)COP(=O)(O)OP(=O)(O)OC[C@H]1O[C@@H](n2cnc3c(N)ncnc32)[C@H](O)[C@@H]1OP(=O)(O)O; pH 7.8, 30 °C).
The kcat/Km of `dxs (Escherichia coli, UniProt P77488)` is reported as 520 ± 40 M⁻¹ s⁻¹ (O=C(O)C(=O)CO; pH 6.8, 37 °C).
For `B1 (GTPBP3 A322P/E225K)`, the kcat/Km was 350 M⁻¹ s⁻¹ (Nc1nc2c(ncn2[C@@H]2O[C@H](COP(=O)(O)OP(=O)(O)OP(=O)(O)O)[C@@H](O)[C@H]2O)c(=O)[nH]1; pH 8, 37 °C, KCl 300 mM).
`B2 (TcC)` gave a kcat/Km of 620000 ± 40000 M⁻¹ s⁻¹ (O=P(O)(O)OC[C@H]1O[C@H](OP(=O)(O)OP(=O)(O)O)[C@H](O)[C@@H]1O; pH 8.3, 37 °C, IMP biosynthesis, apparent, together with: Hx 100 µM).
`DAD V1M (Burkholderia sp.)` gave a kcat/Km of 3.8e+06 ± 200000 M⁻¹ s⁻¹ (O=C(CO)c1ccc(O)cc1; pH 6, 20 °C, together with: O2).
`B3 (HARS1 Y330C)` has a kcat/Km of 272 M⁻¹ s⁻¹ (Nc1ncnc2c1ncn2[C@@H]1O[C@H](COP(=O)(O)OP(=O)(O)OP(=O)(O)O)[C@@H](O)[C@H]1O; pH 7.5, saturation not reached, together with: histidine, tRNAHis 5 µM, MgCl2 10 mM, KCl 150 mM).
For `B4 (enzyme)`, the kcat/Km was 10000 ± 2000 M⁻¹ s⁻¹ (Nc1ncnc2c1ncn2[C@@H]1O[C@H](COP(=O)(O)OP(=O)(O)OP(=O)(O)O)[C@@H](O)[C@H]1O; pH 8, 37 °C).
For `POLI (Homo sapiens, UniProt Q9UNA4)`, the kcat/Km was 24.3 ± 1 M⁻¹ s⁻¹ (Cc1cn([C@H]2C[C@H](O)[C@@H](COP(=O)(O)OP(=O)(O)OP(=O)(O)O)O2)c(=O)[nH]c1=O; pH 8, 37 °C, misinsertion opposite dT, together with: Mg2+).
The kcat/Km of `enzyme (Bifidobacterium adolescentis, UniProt A1A3M6)` is reported as 54900 M⁻¹ s⁻¹ (O=[N+]([O-])c1ccc(O[C@H]2OC[C@H](O)[C@H](O)[C@H]2O)cc1; pH 5, 40 °C).
The kcat/Km of `B5 (enzyme E323G)` is reported as 617 M⁻¹ s⁻¹ (OC[C@H]1O[C@@H](O[C@H]2[C@@H](OC[C@H]3O[C@@H](O[C@H]4[C@H](O)[C@@H](O)[C@H](O[C@H]5[C@H](O)[C@@H](O)[C@@H](F)O[C@@H]5CO)O[C@@H]4CO[C@H]4OC[C@@H](O)[C@H](O)[C@H]4O[C@@H]4O[C@H](CO)[C@H](O)[C@H](O)[C@H]4O)[C@H](O)[C@@H](O)[C@@H]3O[C@@H]3O[C@H](CO[C@H]4OC[C@@H](O)[C@H](O)[C@H]4O)[C@@H](O)[C@H](O)[C@H]3O)OC[C@@H](O)[C@@H]2O)[C@H](O)[C@@H](O)[C@H]1O; pH 7.5, 30 °C, apparent).
`B6 (ltaE H126F/H83F)` gave a kcat/Km of 3.83 M⁻¹ s⁻¹ (C[C@H](O)[C@H](N)C(=O)O; pH 7, 30 °C, potassium phosphate 20 mM, retro-aldol cleavage, together with: PLP 500 µM).
`B7 (Cop6)` has a kcat/Km of 24000 M⁻¹ s⁻¹ (CC(C)=CCC/C(C)=C/COP(=O)(O)OP(=O)(O)O; pH 8, 30 °C, together with: MgCl2 10 mM).
The kcat/Km of `enzyme (UniProt A0A7J5BGR1)` is reported as 50 M⁻¹ s⁻¹ (COc1cc(CN)ccc1O; pH 8, 25 °C).
With `B8 (LigI D246A)` the kcat/Km was 16 ± 2 M⁻¹ s⁻¹ (O=C(O)c1cc(C(=O)O)oc(=O)c1; pH 8.25, 30 °C).
`enzyme (Mortierella alpina, UniProt U5Y3C6)` has a kcat/Km of 1500 M⁻¹ s⁻¹ (CCCCCC/C=C\CCCCCCCC(=O)SCCNC(=O)CCNC(=O)[C@H](O)C(C)(C)COP(=O)(O)OP(=O)(O)OC[C@H]1O[C@@H](n2cnc3c(N)ncnc32)[C@H](O)[C@@H]1OP(=O)(O)O; pH 7.5, 28 °C).
`protein (Stereum hirsutum, UniProt P9WEW2)` has a kcat/Km of 4180 ± 510 M⁻¹ s⁻¹ (CC(C)=CCC/C(C)=C/CC/C(C)=C/CO[P@@](=O)(O)OP(=O)(O)O; pH 8, NaCl 200 mM, together with: FPP 1–100 µM).

Repeated from above:
`B2 (TcC)` gave a kcat/Km of 620000 ± 40000 M⁻¹ s⁻¹ (O=P(O)(O)OC[C@H]1O[C@H](OP(=O)(O)OP(=O)(O)O)[C@H](O)[C@@H]1O; pH 8.3, 37 °C, IMP biosynthesis, apparent, together with: Hx 100 µM).
